Experimental data from different studies.
± gives the spread as reported.

`CO[C@H]1CC[C@H](n2c([C@@H]3CCCC(=O)N3c3ccc(F)c(F)c3)nc3cc(-c4c(C)noc4C)ccc32)CC1` (relative stereo) gave an EC50 of > 100 µM (SARS-CoV-2; viral replication, high-content imaging screen; BetaCov/Belgium/GHB-03021/2020; cell-based).
The EC50 of `CN(C)CCNC(=O)c1cc2occc2n1C` is reported as > 100 µM (Marburg virus; pseudovirus entry; A549).
The EC50 of `N#Cc1ccc2c(c1)N(CCCN1CCC(O)CC1)c1ccccc1S2` is reported as > 100 µM (SARS-CoV-2; viral replication, high-content imaging screen; cell-based).
`O=C(N1CCC2(CC1)C[C@H](CN1CCCCS1(=O)=O)CCO2)C1(c2ccccc2)CCCC1` has an EC50 of > 32 µM (Powassan virus; viral replication).
`CC(C)N1CCN(c2ccc(OCC3COC(Cn4cncn4)(c4ccc(Cl)cc4Cl)O3)cc2)CC1` (stereo not shown) gave an EC50 of > 12.6 µM (SARS-CoV-2; viral replication, high-content imaging screen; cell-based).
With `CN(C)C1CCN(C(=O)c2cc3ccccc3n2Cc2ccc(F)cc2)CC1` the EC50 was > 20 µM (Marburg virus; viral replication; Huh-7, Angola).
The EC50 of `Cc1cc2nnn(-c3ccc(OC(C)C)cc3)c2cc1-c1ccc(OC(C)C)cc1` is reported as ≤ 0.004 µM (vesicular stomatitis virus; viral entry, inhibitor; pseudotyped with Lassa virus glycoprotein).
`Nc1ccn(C[C@@H](CO)OCP(=O)(O)O)c(=O)n1` gave an EC50 of 24.9 ± 2.4 µM (Monkeypox virus; viral replication; Vero).
The EC50 of `CN(CC1CCOC2(CCN(C(=O)C3(c4ccccc4)CCCC3)CC2)C1)C(=O)c1ccccn1` (stereo not shown) is reported as > 39.8 µM (Venezuelan equine encephalitis virus; viral replication).
With `NC(=O)c1nc(F)c[nH]c1=O` the EC50 was 21 µM (Rift Valley fever virus; viral replication; MDCK).
`CCC(C)n1ncn(-c2ccc(N3CCN(c4ccc(OCC5COC(Cn6cncn6)(c6ccc(Cl)cc6Cl)O5)cc4)CC3)cc2)c1=O` (stereo not shown) gave an EC50 of 0.83 ± 0.09 µM (PV3; viral replication; 72 h).
`COc1cccc(C(=O)NCC2CCOC3(CCN(C(=O)C4(c5ccccc5)CCCC4)CC3)C2)c1` (stereo not shown) gave an EC50 of 6.31 µM (Venezuelan equine encephalitis virus; viral replication).
The EC50 of `O=c1ccn([C@@H]2O[C@](F)(CO)[C@@H](O)[C@H]2O)c(=O)[nH]1` is reported as 0.28 µM (Mammarenavirus machupoense; viral replication; HeLa).
The EC50 of `O=C1c2c(O)c(=O)ccn2N([C@@H]2c3ccccc3SCc3c2ccc(F)c3F)[C@@H]2COCCN12` is reported as 0.0002 ± 2e-05 µM (Influenza A virus; viral replication; A(H7N1); mean).
The EC50 of `O=c1ccn([C@H]2[C@H](O)[C@H](O)[C@@H](CO)[C@@H]2F)c(=O)[nH]1` is reported as > 100 µM (MERS-CoV; viral replication; Vero).
With `N#Cc1c(Nc2ccc(F)cc2)n[nH]c1NS(=O)(=O)c1ccc2ccccc2c1` the EC50 was > 25 µM (Powassan virus; viral replication; BHK-21).
`Cc1cc2ncc(-c3ccc(OC(C)(C)C)cc3)n2cc1-c1ccc(OC(C)C)cc1` gave an EC50 of ≤ 0.004 µM (vesicular stomatitis virus; viral entry, inhibitor; pseudotyped with Machupo virus glycoprotein).
The EC50 of `CS(=O)(=O)NCC1CCOC2(CCN(C(=O)C3(c4ccccc4)CCOCC3)CC2)C1` (stereo not shown) is reported as > 39.8 µM (Venezuelan equine encephalitis virus; viral replication).
For `CN(C)c1ccc(N(Cc2cc(Cl)cs2)C(=O)Cc2cncc3cccc(O)c23)cc1`, the EC50 was 0.03 ± 0.02 µM (SARS-CoV-2 Omicron BQ.1.1; viral replication, nucleocapsid staining; Calu-3).
The EC50 of `CC(C)[C@H](NC(=O)[C@H](CCCNC(=N)N)NC(=O)N[C@@H](Cc1ccccc1)C(=O)O)C(=O)N[C@H](C=O)CCCNC(=N)N` is reported as 0.64 µM (SARS-CoV-2 prototype; pseudovirus infection; 48 h).
With `Nc1nc(Nc2ccc3c(c2)CC[C@@H](N2CCCC2)CC3)nn1-c1cc2c(nn1)-c1ccccc1CCC2` the EC50 was 1.78 µM (SARS-CoV-2; viral replication, GFP plate reader screen; BetaCov/Belgium/GHB-03021/2020; cell-based).
`O=C(N1CCC2(CC1)CC(CNCC(F)(F)F)CCO2)C1(c2ccccc2)CCCC1` (stereo not shown) gave an EC50 of > 39.8 µM (Venezuelan equine encephalitis virus; viral replication).
For `Nc1ccn(C[C@@H](CO)OCP(=O)(O)O)c(=O)n1`, the EC50 was 7.3 ± 4.6 µM (Vaccinia virus; viral replication; Lederle).
`CCOC(=O)Oc1c(OC)cc(C(=O)O[C@@H]2C[C@@H]3CN4CCc5c([nH]c6cc(OC)ccc56)[C@H]4C[C@@H]3[C@H](C(=O)OC)[C@H]2OC)cc1OC` has an EC50 of > 100 µM (SARS-CoV-2; viral replication, high-content imaging screen; cell-based).
The EC50 of `CO[C@H]1/C=C/O[C@@]2(C)Oc3c(C)c(O)c4c(O)c(c(/C=N/N5CCN(C6CCCC6)CC5)c(O)c4c3C2=O)NC(=O)/C(C)=C\C=C\[C@H](C)[C@H](O)[C@@H](C)[C@@H](O)[C@@H](C)[C@H](OC(C)=O)[C@@H]1C` is reported as 0.252 µM (Yellow fever virus; viral replication; Vero).
`Cn1cnc(Cn2c(=O)[nH]/c(=N\c3cc4cn(C)nc4cc3Cl)n(Cc3cc(F)c(F)cc3F)c2=O)n1` gave an EC50 of 0.93 µM (murine hepatitis virus A59; viral replication, qRT-PCR; L929).
For `NC(=O)c1ncn([C@@H]2O[C@H](CO)[C@@H](O)[C@H]2O)n1`, the EC50 was 5.1 ± 2.08 µM (Lassa virus; Huh-7).
The EC50 of `NC(=O)c1nc(F)c[nH]c1=O` is reported as 64 µM (Mammarenavirus choriomeningitidis; viral replication; KB).
The EC50 of `CN(C)S(=O)(=O)NCC1CCOC2(CCN(C(=O)C3(c4cccnc4)CCCC3)CC2)C1` (stereo not shown) is reported as > 39.8 µM (Venezuelan equine encephalitis virus; viral replication).
`O=C(Nc1ccc(N2CCCCC2)c(F)c1)c1ccc(CN2CCOCC2)cc1` gave an EC50 of > 100 µM (Lake Victoria marburgvirus; viral entry; MARV-GP pseudovirus).
The EC50 of `O=c1nc(NO)ccn1[C@@H]1O[C@H](CO)[C@@H](O)[C@H]1O` is reported as 0.4 ± 0.3 µM (SARS-CoV-2 Washington strain; viral replication, qRT-PCR; Calu-3).
`NC(=O)c1csc([C@@H]2O[C@H](CO)[C@@H](O)[C@H]2O)n1` gave an EC50 of > 100 µM (Junin virus; viral replication, inhibitor; Vero, Candid #1).
`CC(CN(C)C)CN1c2ccccc2Sc2ccccc21` (stereo not shown) has an EC50 of 17.4 µM (SARS-CoV-2; viral replication, GFP plate reader screen; cell-based).
`CC(C)Oc1ccc(-c2ccn3cnc(-c4ccc(OC(C)C)cc4)c3c2)cc1` gave an EC50 of > 0.02 µM (vesicular stomatitis virus; viral entry, inhibitor; pseudotyped with Machupo virus glycoprotein).
For `Clc1ccc(-c2nn(Cc3ccccc3)c3c2CCNCC3)cc1`, the EC50 was > 25.1 µM (SARS-CoV-2; viral replication, high-content imaging screen; BetaCov/Belgium/GHB-03021/2020; cell-based).
For `Cc1cc2ncn(-c3ccc(OC(C)C)cc3)c2cc1-c1ccc(OC(C)C)cc1`, the EC50 was ≤ 0.004 µM (vesicular stomatitis virus; viral entry, inhibitor; pseudotyped with Junin virus glycoprotein).
The EC50 of `C=CC(=O)Nc1cc(Nc2nccc(-c3cn(C)c4ccccc34)n2)c(OC)cc1N(C)CCN(C)C` is reported as 2.71 µM (Severe acute respiratory syndrome coronavirus; pseudoparticle entry; Vero C1008; 48 h).
The EC50 of `O=C(O)[C@H]1O[C@@H](Oc2cc3oc(-c4ccccc4)cc(=O)c3c(O)c2O)[C@H](O)[C@@H](O)[C@@H]1O` is reported as 25 to 50 µg/mL (SARS coronavirus; FRhK-4; 72 h).
With `O=C1CCC(=O)N1CC1CCOC2(CCN(C(=O)C3(c4ccccc4)CCCC3)CC2)C1` (stereo not shown) the EC50 was 0.501 µM (Venezuelan equine encephalitis virus; viral replication).
`C#Cc1c(C(N)=O)ncn1[C@@H]1O[C@H](CO)[C@@H](O)[C@H]1O` gave an EC50 of 1.9 ± 1.2 µM (Junin virus; viral replication, inhibitor; Vero, Candid #1).
The EC50 of `Cc1cc2ncn(-c3ccc(OC(C)(C)C)cc3)c2cc1-c1ccc(OC(C)(C)O)cc1` is reported as ≤ 0.004 µM (vesicular stomatitis virus; viral entry, inhibitor; pseudotyped with Lassa virus glycoprotein).
The EC50 of `CS(=O)(=O)NCC1CCOC2(CCN(C(=O)C3(c4ccccc4)CCCCC3)CC2)C1` (stereo not shown) is reported as > 39.8 µM (Venezuelan equine encephalitis virus; viral replication).
With `Nc1ccn(C[C@@H](CO)OCP(=O)(O)O)c(=O)n1` the EC50 was 22 µM (vaccinia virus; viral replication; HEL).
For `oseltamivir carboxylate`, the EC50 was 5.6 µM (Influenza A virus H1N1; viral replication, MTS).
`CN1CCCN(C(c2ccccc2)c2ccc(Cl)cc2)CC1` (stereo not shown) has an EC50 of > 25.1 µM (SARS-CoV-2; viral replication, high-content imaging screen; cell-based).
With `O=C(N1CCC2(CC1)CC(Oc1ccccn1)CCO2)C1(c2ccccc2)CCCC1` (stereo not shown) the EC50 was > 39.8 µM (Venezuelan equine encephalitis virus; viral replication).

A few entries again:
For `CN(C)c1ccc(N(Cc2cc(Cl)cs2)C(=O)Cc2cncc3cccc(O)c23)cc1`, the EC50 was 0.03 ± 0.02 µM (SARS-CoV-2 Omicron BQ.1.1; viral replication, nucleocapsid staining; Calu-3).
`O=C(N1CCC2(CC1)CC(CNCC(F)(F)F)CCO2)C1(c2ccccc2)CCCC1` (stereo not shown) gave an EC50 of > 39.8 µM (Venezuelan equine encephalitis virus; viral replication).
`CCOC(=O)Oc1c(OC)cc(C(=O)O[C@@H]2C[C@@H]3CN4CCc5c([nH]c6cc(OC)ccc56)[C@H]4C[C@@H]3[C@H](C(=O)OC)[C@H]2OC)cc1OC` has an EC50 of > 100 µM (SARS-CoV-2; viral replication, high-content imaging screen; cell-based).
The EC50 of `CC(C)[C@H](NC(=O)[C@H](CCCNC(=N)N)NC(=O)N[C@@H](Cc1ccccc1)C(=O)O)C(=O)N[C@H](C=O)CCCNC(=N)N` is reported as 0.64 µM (SARS-CoV-2 prototype; pseudovirus infection; 48 h).
With `O=C1CCC(=O)N1CC1CCOC2(CCN(C(=O)C3(c4ccccc4)CCCC3)CC2)C1` (stereo not shown) the EC50 was 0.501 µM (Venezuelan equine encephalitis virus; viral replication).
